Published values from different studies.
Compare with care: the assays were run in different laboratories.

SMILES | test | test system | setting | scale | measurement | value
O=C(Nc1nc2cccc(-c3ccc(CN4CCS(=O)(=O)CC4)cc3)n2n1)C1CC1 |  | rheumatoid arthritis patients | oral, 100 mg twice daily, 4 weeks, TEAE regardless of relatedness |  | patients with Gastritis | 0%
COc1ccc([C@@H](O)c2cc(-c3ncnc4cc(N5CCOCC5)ccc34)c(F)cc2Cl)nn1 | item: general and administration site disorders | locally advanced rectal cancer patients | 250 mg, together with: capecitabine plus radiotherapy |  | patients with drug-related AE | 50%
Cc1cc(-c2nnc(N)nc2-c2ccc(F)cc2)cc(Cl)n1 | item: myositis | post-IO NSCLC patients | oral, 100 mg once daily, treatment-related, grade 2 |  | patients with immune-mediated AE | 0%
CNC(=O)c1cc(Oc2ccc(NC(=O)Nc3cc(C(C)(C)C)nn3-c3ccc4ncccc4c3)c(F)c2)ccn1 |  | patients | oral, dose not given, cycles 1 and 2, Medium Cmax subgroup |  | patients with visual abnormalities | 33%
CCOc1c([C@H](C)n2nc(C)c3c(N)ncnc32)cc(Cl)c(F)c1[C@@H]1CNC(=O)C1 | item: QTcF change ≤30 ms | previously treated B-cell malignancy | oral, 5 mg once daily, overall population | reference: baseline | patients | 100%
Cc1cc(NC2CCN(C(=O)OC3CCN(C(=O)/C=C/CN(C)C)C3)CC2)n2ncc(C(C)C)c2n1 (stereo not shown) | Phase I dose escalation CTCAE v4.0, item: Flatulence | patients with advanced solid tumours | dose not given, all dose schedules any grade |  | patients with adverse event | 7%
C=CC(=O)Nc1cc(Nc2nccc(-c3cn(C)c4ccccc34)n2)c(OC)cc1N(C)CCN(C)C | item: treatment-related grade ≥3 Rash | EGFR-mutant MET-altered NSCLC | oral, dose not given, all |  | patients with adverse events | 3%
CNC(=O)c1ccc(-c2cnc3ncc(Cc4ccc5ncccc5c4)n3n2)cc1F | item: Headache | other cancer patients | oral, 600 mg twice daily, expansion cohort, grade 3-4 |  | patients with adverse event | 0%
COc1cc2nccc(Oc3ccc(NC(=O)c4cc5c(n(-c6ccccc6)c4=O)CCCC5=O)nc3)c2cc1OC |  | patients with relapsed/refractory AML | oral, 3 mg once daily |  | patients with TEAEs | 100%
C=CC(=O)NC1CCN(c2ncc3ncnc(Nc4ccc(Oc5ccc6c(c5)ncn6C)c(C)c4)c3n2)CC1 |  | male patients | oral, dose not given, on-treatment adverse events |  | patients with Constipation | 0%
C[C@@H](c1ccc2nccn2c1)n1nnc2ncc(-c3cnn(C)c3)nc21 | item: treatment-related grade ≥3 Vomiting | EGFR-mutant MET-altered NSCLC | oral, dose not given, all |  | patients with adverse events | 3%
FC(F)(F)c1ccc(CNc2ccc(Cc3c[nH]c4ncc(Cl)cc34)cn2)cn1 | item: aspartate aminotransferase increased | non-TGCT solid tumour patients | oral, 1000 mg/day, all grades |  | patients with treatment-related adverse event | 8%
COc1cc(Nc2ncc3c(n2)-c2ccc(Cl)cc2C(c2c(F)cccc2OC)=NC3)ccc1C(=O)O |  | cancer patients | oral, dose not given, grade 1 any attribution, together with: pembrolizumab |  | patients with increased LDH | 25%
CC(C)C[C@H](NC(=O)CNC(=O)c1cc(Cl)ccc1Cl)B(O)O | item: Pneumonia, all grades | newly diagnosed multiple myeloma patients | oral, dose not given, maintenance phase, new onset, cycle 17 or later |  | patients with adverse event | 0%
NC(=O)N1c2ccccc2C=Cc2ccccc21 |  | male patients | oral, dose not given, on-treatment adverse events |  | patients with abdominal discomfort | 7%
C[C@@H](Nc1cc(F)cc(F)c1)c1cc(C(=O)N(C)C)cc2c(=O)cc(N3CCOCC3)oc12 | CTCAE v4, item: lung infection | patients with advanced solid tumours | oral, dose not given, phase I dose finding |  | patients with related SAE | 0%

Some of these lines once more:
SMILES | test | test system | setting | scale | measurement | value
C[C@@H](c1ccc2nccn2c1)n1nnc2ncc(-c3cnn(C)c3)nc21 | item: treatment-related grade ≥3 Vomiting | EGFR-mutant MET-altered NSCLC | oral, dose not given, all |  | patients with adverse events | 3%
FC(F)(F)c1ccc(CNc2ccc(Cc3c[nH]c4ncc(Cl)cc34)cn2)cn1 | item: aspartate aminotransferase increased | non-TGCT solid tumour patients | oral, 1000 mg/day, all grades |  | patients with treatment-related adverse event | 8%
